Earlier results as cited in several papers.
Each line is one published result; not all experiments were run side by side. ± marks the error that the study gave. Converted amounts (≈) assume the structure as drawn.
lasR: Transcriptional activator protein LasR (lasR, Pseudomonas aeruginosa, UniProt P25084)
UniProt P25084, sequence (whole entry, looked up): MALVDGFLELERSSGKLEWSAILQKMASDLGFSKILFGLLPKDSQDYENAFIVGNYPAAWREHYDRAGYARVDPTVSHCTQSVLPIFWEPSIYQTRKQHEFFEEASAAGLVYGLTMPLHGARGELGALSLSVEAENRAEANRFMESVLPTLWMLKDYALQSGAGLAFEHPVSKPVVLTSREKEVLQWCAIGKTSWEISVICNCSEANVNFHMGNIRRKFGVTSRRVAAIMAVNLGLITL
UniProt P28335, sequence (whole entry, looked up): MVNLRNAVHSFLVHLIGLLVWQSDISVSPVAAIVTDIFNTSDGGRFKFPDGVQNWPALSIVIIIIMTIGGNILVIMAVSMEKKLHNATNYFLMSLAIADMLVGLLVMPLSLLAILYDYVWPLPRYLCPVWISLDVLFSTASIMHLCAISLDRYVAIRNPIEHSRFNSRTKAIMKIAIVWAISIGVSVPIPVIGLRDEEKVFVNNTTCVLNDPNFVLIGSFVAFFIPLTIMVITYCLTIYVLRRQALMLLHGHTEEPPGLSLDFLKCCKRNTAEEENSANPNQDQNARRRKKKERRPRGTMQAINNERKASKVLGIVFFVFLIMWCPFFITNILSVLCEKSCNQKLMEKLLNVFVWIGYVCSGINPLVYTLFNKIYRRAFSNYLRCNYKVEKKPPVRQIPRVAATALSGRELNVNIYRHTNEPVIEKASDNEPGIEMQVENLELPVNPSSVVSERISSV

Cc1ccc(Cn2cc(C(=O)NCCOCCO)c(=O)c3cc(C(=O)/C=C/c4ccc([N+](=O)[O-])o4)ccc32)cc1
IC50 (Trypanosoma brucei brucei; parasite growth): 80 nM

OC[C@@]12C[C@@H]1[C@@H](n1cnc3c(N[C@H](C4CCC4)C4CC4)nc(Cl)nc31)[C@H](O)[C@@H]2O
Ki (HTR2C (Homo sapiens, UniProt P28335); binding; together with: [3H]mesulergine): 298 nM

Cc1ccncc1CC(=O)Nc1cccc2c1CNCC2
inhibition (main protease (Mpro); 50 µM): 2.76%

CCCCCCC#Cc1cncc(-c2nnc(SCc3ccc(Cl)cc3)n2C)c1
IC50 (Mycobacterium tuberculosis; MABA; Erdman wild type): 5300 nM

CC[C@H](C)[C@H](NC(=O)[C@H](CCCNC(=N)N)NC(=O)[C@@H](NC(=O)[C@@H]1CCCN1C(=O)[C@H](CCCNC(=N)N)NC(=O)[C@@H](NC(=O)[C@@H]1CCCN1C(=O)[C@H](CC(C)C)NC(=O)[C@H](CC(C)C)NC(=O)CNC(=O)[C@H](Cc1c[nH]cn1)NC(=O)[C@@H]1CCCN1C(=O)CNC(=O)[C@H](Cc1ccccc1)NC(=O)[C@H](CC(=O)O)NC(=O)[C@H](Cc1c[nH]c2ccccc12)NC(=O)[C@H](C)NC(=O)[C@@H](NC(=O)[C@H](C)N)[C@@H](C)O)[C@@H](C)CC)[C@@H](C)CC)C(=O)N[C@@H](CCCNC(=N)N)C(=O)N1CCC[C@H]1C(=O)N[C@@H](CC(C)C)C(=O)N[C@@H](CS)C(=O)NCC(=O)N[C@@H](CCCCN)C(=O)N[C@@H](CC(=O)O)C(=O)O
MIC (Escherichia coli): > 128 µM

CCCCCCCCCNC(=O)CC(=O)c1ccccc1
maximal inhibition (lasR; rsaL-yfp reporter, inhibitor; PAO-MW1): 75%

CC[C@H](C)[C@H](NC(=O)CNC(=O)[C@@H](NC(=O)CNC(=O)[C@@H](NC(=O)CNC(=O)[C@@H](NC(=O)[C@@H](NC(=O)[C@H](CCC(N)=O)NC(=O)[C@H](CCC(=O)O)NC(=O)[C@@H](NC(=O)[C@H](CC(C)C)NC(=O)[C@H](CCCNC(=N)N)NC(=O)[C@H](Cc1ccccc1)NC(=O)[C@@H](NC(=O)[C@H](CC(N)=O)NC(=O)[C@H](CCCCN)NC(=O)CNC(=O)[C@H](CCSC)NC(=O)[C@H](CCCCN)NC(=O)CNC(=O)[C@H](CC(C)C)NC(=O)[C@H](CCCCN)NC(=O)[C@H](CCCCN)NC(=O)CNC(=O)[C@H](Cc1ccccc1)NC(=O)[C@H](CCCCN)NC(=O)[C@H](CCCCN)NC(=O)[C@H](CC(C)C)NC(=O)[C@H](Cc1c[nH]c2ccccc12)NC(=O)CN)C(C)C)C(C)C)C(C)C)C(C)C)C(C)C)C(C)C)C(=O)N[C@@H](CC(N)=O)C(=O)N[C@@H](C)C(=O)N[C@@H](CC(C)C)C(=O)N[C@@H](CO)C(=O)O
MIC (Pseudomonas aeruginosa): 16 µM (≈ 60.1 µg/mL)

O=C(CC(=O)N[C@H]1CCOC1=O)Cc1ccccc1
inhibition (lasR; lasI-lacZ reporter, inhibitor; 5 µM): 18%

CC(=O)OC12COC1CC(O)C1(C)C(=O)C(OC(=O)N(C)C)C3=C(C)C(OC(=O)C(O)C(C=C(C)C)NC(=O)OC(C)(C)C)CC(O)(C(OC(=O)c4cccc(OC(F)(F)F)c4)C21)C3(C)C (stereo not drawn)
IC50 (MCF7/PTX, paclitaxel-resistant; cell viability): 31.4 ± 2.84 nM

NC[C@]1(CC(=O)O)CC[C@@H]([18F])CC1
IC50 (α2δ-1; radioligand binding): 24 nM

O=C(Nc1cccnc1)N(CCN1CCOCC1)c1cccc(Cl)c1
inhibition (main protease (Mpro); 20 µM): 24.4%

CC[C@H](C)[C@H](NC(=O)CNC(=O)[C@H](CC(=O)O)NC(=O)[C@H](CCCNC(=N)N)NC(=O)[C@@H](NC(=O)[C@H](CC(N)=O)NC(=O)[C@H](CCCNC(=N)N)NC(=O)CNC(=O)[C@@H](NC(=O)[C@H](CCCCN)NC(=O)[C@H](CCC(=O)O)NC(=O)[C@H](CC(C)C)NC(=O)[C@H](CCCCN)NC(=O)[C@H](CCCCN)NC(=O)[C@H](Cc1c[nH]c2ccccc12)NC(=O)[C@H](CO)NC(=O)[C@@H]1CCCN1)C(C)C)[C@@H](C)CC)C(=O)N[C@H](C(=O)N[C@@H](CCCCN)C(=O)N[C@@H](C)C(=O)NCC(=O)N1CCC[C@H]1C(=O)N[C@H](C(=O)N[C@H](C(=O)N[C@@H](CCC(=O)O)C(=O)N[C@H](C(=O)N[C@@H](CC(C)C)C(=O)NCC(=O)O)C(C)C)C(C)C)C(C)C)[C@@H](C)CC
MIC (Escherichia coli): 4 µM (≈ 12.2 µg/mL)

CCN(CC)CCCNC(=O)c1cn(CCCc2ccccc2)c2cc(Cl)ccc2c1=O
IC50 (several cancer cell lines; range over cell lines): 4870 to 6820 nM

CC[C@H](C)[C@H](NC(=O)[C@@H]1CCCN1C(=O)[C@H](CS)NC(=O)[C@H](Cc1ccc(O)cc1)NC(=O)[C@@H]1CCCN1C(=O)[C@H](CC(C)C)NC(=O)[C@H](CCCNC(=N)N)NC(=O)[C@H](CO)NC(=O)[C@H](Cc1ccc(O)cc1)NC(=O)[C@H](Cc1ccccc1)NC(=O)[C@H](CC(N)=O)NC(=O)[C@H](CCCNC(=N)N)NC(=O)[C@H](CS)NC(=O)[C@H](Cc1ccc(O)cc1)NC(=O)[C@H](CO)NC(=O)CNC(=O)[C@H](CO)NC(=O)[C@@H]1CCCN1C(=O)[C@H](CC(C)C)NC(=O)[C@H](Cc1ccc(O)cc1)NC(=O)[C@H](C)NC(=O)[C@@H]1CCCN1C(=O)[C@H](CCCNC(=N)N)NC(=O)CN)C(=O)N[C@@H](CCCNC(=N)N)C(=O)NCC(=O)NCC(=O)N[C@@H](Cc1c[nH]cn1)C(=O)N[C@@H](CS)C(=O)N[C@@H](CCCNC(=N)N)C(=O)O
MIC (Pseudomonas aeruginosa): 32 µM (≈ 110 µg/mL)

CN(C(=O)[C@H](Cc1ccccc1)NC(=O)Cc1c[nH]c2ccc(O)cc12)c1ccc(Cl)cc1
ΔTm (HIV-1 capsid hexamer wild type): 6.6 °C

A few entries again:
CC(=O)OC12COC1CC(O)C1(C)C(=O)C(OC(=O)N(C)C)C3=C(C)C(OC(=O)C(O)C(C=C(C)C)NC(=O)OC(C)(C)C)CC(O)(C(OC(=O)c4cccc(OC(F)(F)F)c4)C21)C3(C)C (stereo not drawn)
IC50 (MCF7/PTX, paclitaxel-resistant; cell viability): 31.4 ± 2.84 nM

NC[C@]1(CC(=O)O)CC[C@@H]([18F])CC1
IC50 (α2δ-1; radioligand binding): 24 nM
